Experimental data gathered from unrelated publications.
Lines come from different studies, so protocols differ. ± marks the error that the study gave.
OSBP2: Oxysterol-binding protein 2 (OSBP2, Homo sapiens, UniProt Q969R2)
Chain of UniProt Q969R2 (whole entry, looked up): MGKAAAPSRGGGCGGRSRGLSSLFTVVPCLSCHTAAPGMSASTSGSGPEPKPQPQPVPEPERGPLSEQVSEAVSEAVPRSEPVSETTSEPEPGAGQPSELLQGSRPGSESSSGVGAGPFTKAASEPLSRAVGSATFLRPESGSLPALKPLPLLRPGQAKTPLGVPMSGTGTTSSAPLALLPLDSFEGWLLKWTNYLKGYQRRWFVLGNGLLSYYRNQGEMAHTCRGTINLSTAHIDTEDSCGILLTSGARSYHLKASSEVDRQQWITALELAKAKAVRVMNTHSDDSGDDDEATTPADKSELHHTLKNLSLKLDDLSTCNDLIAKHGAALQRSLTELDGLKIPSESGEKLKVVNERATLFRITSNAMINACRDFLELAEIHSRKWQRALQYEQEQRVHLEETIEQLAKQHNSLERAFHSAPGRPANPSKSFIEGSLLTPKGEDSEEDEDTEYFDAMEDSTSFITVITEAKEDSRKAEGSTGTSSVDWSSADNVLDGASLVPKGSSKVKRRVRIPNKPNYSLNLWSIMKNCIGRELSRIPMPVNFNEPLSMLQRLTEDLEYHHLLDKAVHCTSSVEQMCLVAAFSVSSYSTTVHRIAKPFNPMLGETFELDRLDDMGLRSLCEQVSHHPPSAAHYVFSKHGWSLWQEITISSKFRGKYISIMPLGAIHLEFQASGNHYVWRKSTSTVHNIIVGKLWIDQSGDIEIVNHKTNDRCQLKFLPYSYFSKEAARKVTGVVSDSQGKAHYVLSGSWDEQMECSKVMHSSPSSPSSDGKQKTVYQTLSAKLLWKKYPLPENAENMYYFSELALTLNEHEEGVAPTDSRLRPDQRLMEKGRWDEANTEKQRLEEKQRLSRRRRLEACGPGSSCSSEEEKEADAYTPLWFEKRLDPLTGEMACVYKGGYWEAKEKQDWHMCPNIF
ORM1 F1/S variants: Alpha-1-acid glycoprotein 1, F1/S variants (ORM1, Homo sapiens, UniProt P02763)
Chain of UniProt P02763 (whole entry, looked up): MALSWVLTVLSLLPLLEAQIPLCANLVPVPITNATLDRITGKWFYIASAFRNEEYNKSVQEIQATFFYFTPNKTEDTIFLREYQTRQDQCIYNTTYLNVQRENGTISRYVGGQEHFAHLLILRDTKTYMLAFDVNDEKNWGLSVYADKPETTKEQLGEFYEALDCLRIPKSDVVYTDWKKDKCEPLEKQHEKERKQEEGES
uncharacterized protein: uncharacterized protein (Spodoptera exigua, UniProt F1CEY0)
VHL with elongin B/C: von Hippel-Lindau disease tumor suppressor, with elongin B/C (VHL, Homo sapiens, UniProt P40337)
Chain of UniProt P41893 (whole entry, looked up): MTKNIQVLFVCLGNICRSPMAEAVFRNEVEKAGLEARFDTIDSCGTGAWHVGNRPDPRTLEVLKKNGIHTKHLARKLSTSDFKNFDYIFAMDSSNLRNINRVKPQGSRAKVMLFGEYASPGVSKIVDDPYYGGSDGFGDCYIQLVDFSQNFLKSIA
Chain of UniProt P50406 (whole entry, looked up): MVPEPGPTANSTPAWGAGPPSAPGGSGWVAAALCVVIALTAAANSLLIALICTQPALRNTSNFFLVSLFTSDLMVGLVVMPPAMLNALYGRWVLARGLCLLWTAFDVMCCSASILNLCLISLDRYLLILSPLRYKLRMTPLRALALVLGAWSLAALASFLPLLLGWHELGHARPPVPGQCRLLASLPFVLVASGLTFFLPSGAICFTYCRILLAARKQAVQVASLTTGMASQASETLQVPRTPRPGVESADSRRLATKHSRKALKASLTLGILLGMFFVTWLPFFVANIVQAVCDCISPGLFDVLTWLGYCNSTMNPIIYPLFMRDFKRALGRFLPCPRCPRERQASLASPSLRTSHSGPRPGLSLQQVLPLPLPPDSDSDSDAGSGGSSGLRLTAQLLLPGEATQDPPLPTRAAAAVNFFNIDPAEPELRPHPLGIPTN
Chain of UniProt P33261 (whole entry, looked up): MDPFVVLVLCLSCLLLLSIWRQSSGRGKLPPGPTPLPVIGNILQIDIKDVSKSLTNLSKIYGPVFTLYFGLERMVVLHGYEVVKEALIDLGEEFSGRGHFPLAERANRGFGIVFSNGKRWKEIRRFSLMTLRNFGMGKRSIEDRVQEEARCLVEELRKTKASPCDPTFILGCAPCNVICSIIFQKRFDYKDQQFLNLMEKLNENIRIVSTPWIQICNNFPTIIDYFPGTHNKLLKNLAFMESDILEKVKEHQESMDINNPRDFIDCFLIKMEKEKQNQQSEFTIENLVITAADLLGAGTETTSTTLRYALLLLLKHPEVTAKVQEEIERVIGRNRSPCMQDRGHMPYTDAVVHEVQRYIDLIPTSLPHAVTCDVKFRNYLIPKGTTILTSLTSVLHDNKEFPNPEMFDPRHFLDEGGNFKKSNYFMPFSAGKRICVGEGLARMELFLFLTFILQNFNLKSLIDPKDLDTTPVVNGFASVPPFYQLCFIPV
Chain of UniProt Q00535 (whole entry, looked up): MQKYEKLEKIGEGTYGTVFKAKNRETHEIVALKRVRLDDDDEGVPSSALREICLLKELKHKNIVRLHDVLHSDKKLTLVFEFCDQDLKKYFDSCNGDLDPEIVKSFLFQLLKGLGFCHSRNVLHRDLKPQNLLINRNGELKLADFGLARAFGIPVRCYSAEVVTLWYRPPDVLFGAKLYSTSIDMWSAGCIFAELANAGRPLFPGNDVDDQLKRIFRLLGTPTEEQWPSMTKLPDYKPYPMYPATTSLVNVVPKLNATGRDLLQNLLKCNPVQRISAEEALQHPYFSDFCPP
Chain of UniProt P16662 (whole entry, looked up): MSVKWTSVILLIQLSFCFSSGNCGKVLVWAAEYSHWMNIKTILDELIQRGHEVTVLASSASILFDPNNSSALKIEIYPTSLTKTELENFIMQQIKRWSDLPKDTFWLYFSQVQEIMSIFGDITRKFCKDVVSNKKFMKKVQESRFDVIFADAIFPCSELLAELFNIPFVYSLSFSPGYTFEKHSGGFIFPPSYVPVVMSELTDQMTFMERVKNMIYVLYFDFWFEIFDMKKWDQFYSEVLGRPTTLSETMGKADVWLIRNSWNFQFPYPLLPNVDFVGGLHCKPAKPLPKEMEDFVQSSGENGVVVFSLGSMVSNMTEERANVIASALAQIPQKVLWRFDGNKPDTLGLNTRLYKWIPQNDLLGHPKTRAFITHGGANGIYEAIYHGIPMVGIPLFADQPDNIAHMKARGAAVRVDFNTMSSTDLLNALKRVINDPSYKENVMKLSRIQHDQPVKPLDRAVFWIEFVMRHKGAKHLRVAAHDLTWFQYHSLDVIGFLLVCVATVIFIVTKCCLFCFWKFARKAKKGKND
Chain of UniProt P0DMS8 (whole entry, looked up): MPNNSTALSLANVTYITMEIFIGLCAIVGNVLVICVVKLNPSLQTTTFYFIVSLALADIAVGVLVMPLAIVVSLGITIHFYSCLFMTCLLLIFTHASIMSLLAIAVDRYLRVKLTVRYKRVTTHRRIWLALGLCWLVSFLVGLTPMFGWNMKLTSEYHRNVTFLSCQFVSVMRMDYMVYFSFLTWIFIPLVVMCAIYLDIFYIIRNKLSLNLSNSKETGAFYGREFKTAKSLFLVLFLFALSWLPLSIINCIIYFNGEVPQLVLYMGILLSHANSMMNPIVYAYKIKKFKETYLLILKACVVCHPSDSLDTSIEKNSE

SMILES	target	test	system	conditions	Ki
C=C1CC[C@@H]2[C@](C)(CO)[C@H](O)CC[C@@]2(C)[C@@H]1CCC1=CCOC1=O	UGT2B7 (Homo sapiens, UniProt P16662)	AZT glucuronidation, inhibitor	pooled human liver microsomes	30 min, pH 7.4, added: zidovudine	7.1 µM
CC(=O)OCC(=O)[C@H]1CC[C@H]2[C@@H]3CC=C4C[C@@H](O)CC[C@]4(C)[C@H]3CC[C@]12C	OSBP2	binding, radioligand competition		added: [3H]-25-hydroxycholesterol	> 100 µM
CNC(=O)[C@@]12C[C@@H]1[C@@H](n1cnc3c(NC)nc(C#C[c-]4cccc4)nc31)[C@H](O)[C@@H]2O.[Fe+2].c1cc[cH-]c1	HTR6 (Homo sapiens, UniProt P50406)	radioligand binding (PDSP)			0.365 µM
CCN(CC)CCCN(c1ccccc1)C1Cc2ccccc2C1	ORM1 F1/S variants	competitive inhibitor, ultrafiltration		15 min, 37 °C, added: [3H]tamsulosin	4.21 µM
O=[N+]([O-])c1ccc(OS(=O)(=O)O)cc1	Low molecular weight phosphotyrosine protein phosphatase (stp1, Schizosaccharomyces pombe, UniProt P41893)				6600 ± 700 µM
CSc1ccc2c(c1)N(CCC1CCCCN1C)c1ccccc1S2 (stereo not drawn)	ORM1 F1/S variants	competitive inhibitor, ultrafiltration		15 min, 37 °C, added: [3H]S-warfarin	0.93 µM
COc1cc2c(cc1OC)-c1cc3ccc(OC)c(OC)c3c[n+]1CC2	lipase	inhibitor			160 µM
CCCCCCCCCCCCCC(C)=O	uncharacterized protein	binding		added: 1-NPN	7.99 µM
Cc1ncsc1-c1ccc(CNC(=O)[C@@H]2C[C@@H](O)CN2C(=O)[C@@H](NC(=O)C2(F)CC2)C(C)(C)C)c(OCCOc2ccc(CN3CCN(c4cc(-c5ccccc5O)nnc4N)CC3)cc2)c1	VHL with elongin B/C	binding			0.45 µM
Nc1nc2c(cnn2CCc2ccccc2)c2nc(-c3ccco3)nn12	ADORA3 (Homo sapiens, UniProt P0DMS8)	NanoBRET competition binding	HEK293 expressing Nluc-A3	co-addition with tracer	8.13 µM
COCc1cc(C(=O)Nc2cc([C@H]3CC[C@@H](OC(=O)NC(C)C)C3)[nH]n2)n(C)n1	Cyclin-dependent kinase 5, with p25 (CDK5, Homo sapiens, UniProt Q00535)	kinase activity, inhibitor, fluorescence			0.0066 µM
C[C@H](CCC(=O)NCCS(=O)(=O)O)[C@H]1CC[C@H]2[C@@H]3[C@@H](O)C[C@@H]4C[C@H](O)CC[C@]4(C)[C@H]3CC[C@]12C	OSBP2	[3H]-25-hydroxycholesterol binding, competitive inhibitor			> 100 µM
CCOC(=O)[C@H](CCc1ccccc1)N[C@H]1CCc2ccccc2N(CC(=O)O)C1=O	ORM1 F1/S variants	competitive inhibitor, ultrafiltration		15 min, 37 °C, added: [3H]tamsulosin	61.1 µM
O=c1cccccc1S	CA2 (Homo sapiens, UniProt P00918, L197G)	esterase activity, inhibitor, p-nitrophenyl acetate hydrolysis		pH 8.0	61 ± 5 µM
COc1ccccc1OCCNCC(O)COc1cccc2[nH]c3ccccc3c12 (stereo not drawn)	ORM1 F1/S variants	competitive inhibitor, ultrafiltration		15 min, 37 °C, added: [3H]S-warfarin	7.52 µM
CCCCCCCCOC(C)=O	uncharacterized protein	binding		added: 1-NPN	5.77 µM
COC(=O)C1=C(C)NC(C)=C(C(=O)OCCN(C)Cc2ccccc2)C1c1cccc([N+](=O)[O-])c1 (stereo not drawn)	ORM1 F1/S variants	competitive inhibitor, ultrafiltration		15 min, 37 °C, added: [3H]tamsulosin	4.86 µM
Cc1ncsc1-c1ccc(CNC(=O)[C@@H]2C[C@@H](O)CN2C(=O)[C@@H](NC(=O)C2(F)CC2)C(C)(C)C)c(OCCOCCOCCN2CCN(c3cc(-c4ccccc4O)nnc3N)CC2)c1	VHL with elongin B/C	binding			0.21 µM
COC(=O)C1=C(C)NC(C)=C(C(=O)O[C@H]2CCN(Cc3ccccc3)C2)[C@H]1c1cccc([N+](=O)[O-])c1	ORM1 F1/S variants	competitive inhibitor, ultrafiltration		15 min, 37 °C, added: [3H]S-warfarin	29.2 µM
N#Cc1ccc([C@H]2CCc3cncn32)c(F)c1	CYP2C19 (Homo sapiens, UniProt P33261)	inhibitor, measured: S-mephenytoin 4'-hydroxylation	pooled human liver microsomes	pH 7.4, added: S-mephenytoin	4.63 ± 0.353 µM
CCCCCCCCCCCO	uncharacterized protein	binding		added: 1-NPN	3.6 µM
